{"data": "Results from different studies", "note": "Lines come from different studies, so protocols differ."}
{"SMILES": "CC[C@H](C)[C@H](NC(=O)[C@H](Cc1ccccc1)NC(=O)[C@H](CCC(=O)O)NC(=O)[C@H](CCCCNC(=O)COCCOCCNC(=O)COCCOCCNC(=O)CC[C@H](NC(=O)CCCCCCCCCCCCCCCCC(=O)O)C(=O)O)NC(=O)[C@H](C)NC(=O)[C@H](C)NC(=O)[C@H](CCC(N)=O)NC(=O)CNC(=O)[C@H](CCC(=O)O)NC(=O)[C@H](CC(C)C)NC(=O)[C@H](Cc1ccc(O)cc1)NC(=O)[C@H](CO)NC(=O)[C@H](CO)NC(=O)[C@@H](NC(=O)[C@H](CC(=O)O)NC(=O)[C@H](CO)NC(=O)[C@@H](NC(=O)[C@H](Cc1ccccc1)NC(=O)[C@@H](NC(=O)CNC(=O)[C@H](CCC(=O)O)NC(=O)C(C)(C)NC(=O)[C@@H](N)Cc1cnc[nH]1)[C@@H](C)O)[C@@H](C)O)C(C)C)C(=O)N[C@@H](C)C(=O)N[C@@H](Cc1c[nH]c2ccccc12)C(=O)N[C@@H](CC(C)C)C(=O)N[C@H](C(=O)N[C@@H](CCCNC(=N)N)C(=O)NCC(=O)N[C@@H](CCCNC(=N)N)C(=O)NCC(=O)O)C(C)C", "test": "item: Headache", "test system": "type 2 diabetes patients", "setting": "dose not given", "how to read": "reference: subjects", "adverse event incidence": "40%"}
{"SMILES": "CC(=O)O[C@H]1C(=O)[C@@]2(C)[C@H]([C@H](OC(=O)c3ccccc3)[C@]3(O)C[C@H](OC(=O)[C@H](O)[C@@H](NC(=O)c4ccccc4)c4ccccc4)C(C)=C1C3(C)C)[C@]1(OC(C)=O)CO[C@@H]1C[C@@H]2O", "test": "item: Pruritus", "test system": "patients with advanced solid tumours", "setting": "intravenous, dose not given, grade 1 and 2, possibly related to drug", "adverse event incidence": "11%"}
{"SMILES": "O=C1CCc2ccc(OCCCCN3CCN(c4cccc(Cl)c4Cl)CC3)cc2N1", "test": "item: Rigidity", "test system": "genotyped patients, CYP2D6 intermediate metabolizers", "setting": "dose not given, long-acting oral or depot", "adverse event incidence": "8.3%"}
{"SMILES": "NCCONC(=O)[C@@H]1CC[C@@H]2CN1C(=O)N2OS(=O)(=O)O", "test": "item: increased vitamin C", "test system": "healthy Chinese men", "setting": "intravenous, 2 g, treatment-emergent", "adverse event incidence": "12.5%"}
{"SMILES": "Cc1c(C(=O)O)ccc2c3n(nc12)[C@@H]1[C@H](C3)N(CC2CC2)[C@@]2(C(=O)Nc3cc(Cl)ccc32)[C@H]1c1cccc(Cl)c1F", "test": "phase Ia trial, item: Neutropenia", "test system": "cancer patients", "setting": "oral, dose not given, all patients grade ≥3", "adverse event incidence": "24.1%"}
{"SMILES": "CC(C)n1c(Nc2cccnc2)nc2cnc(Nc3ccc(N4CCN(C)CC4)cc3)nc21", "test": "item: Hypertriglyceridaemia", "test system": "healthy male subjects", "setting": "oral, 100 mg, added: itraconazole", "adverse event incidence": "35.7%"}
{"SMILES": "CC[C@H](C)CCCCC(=O)N[C@@H](CCN)C(=O)N[C@H](C(=O)N[C@@H](CCN)C(=O)N[C@H]1CCNC(=O)[C@H]([C@@H](C)O)NC(=O)[C@H](CCN)NC(=O)[C@H](CCN)NC(=O)[C@H](CC(C)C)NC(=O)[C@@H](Cc2ccccc2)NC(=O)[C@H](CCN)NC1=O)[C@@H](C)O", "test": "item: oral hypoaesthesia", "test system": "mild renal insufficiency patients", "setting": "IV, 0.75 mg/kg", "adverse event incidence": "85.7%"}
{"SMILES": "Cc1c(Cl)c(C)[n+]([O-])c(Cl)c1-c1noc(-c2cc(O)c(O)c([N+](=O)[O-])c2)n1", "test": "item: Moderate severity", "test system": "healthy Chinese subjects", "setting": "oral, 25 mg", "adverse event incidence": "0%"}
{"SMILES": "FC(F)(F)c1ccc(CNc2ccc(Cc3c[nH]c4ncc(Cl)cc34)cn2)cn1", "test": "item: Constipation", "test system": "patients with advanced solid tumours", "setting": "oral, dose not given, all grades, possibly related to drug", "adverse event incidence": "11%"}
{"SMILES": "Cc1ccc(Sc2ccccc2N2CCNCC2)c(C)c1", "test": "any TEAE", "test system": "healthy adult men", "setting": "oral, 40 mg single dose, 10 days", "adverse event incidence": "50%"}
{"note": "Some of these lines once more:"}
{"SMILES": "Cc1c(Cl)c(C)[n+]([O-])c(Cl)c1-c1noc(-c2cc(O)c(O)c([N+](=O)[O-])c2)n1", "test": "item: Moderate severity", "test system": "healthy Chinese subjects", "setting": "oral, 25 mg", "adverse event incidence": "0%"}
